Measurements from different studies.
Numbered parts are unrelated; each lists some results of a single study. Substitutions count along the parent as printed.

Block 1
Target: ABI1, truncated, D143A, DHFR fusion (Arabidopsis thaliana)
Technique: DHFR PCA, deep sequencing
Matrix: yeast
Setting: methotrexate growth selection, single substitutions
Added: (+)-ABA 17 µM
Relative to: wild-type fitted maximum
Direction: higher = stronger binding
Starting sequence: PYL1, truncated, DHFR fusion (Arabidopsis thaliana); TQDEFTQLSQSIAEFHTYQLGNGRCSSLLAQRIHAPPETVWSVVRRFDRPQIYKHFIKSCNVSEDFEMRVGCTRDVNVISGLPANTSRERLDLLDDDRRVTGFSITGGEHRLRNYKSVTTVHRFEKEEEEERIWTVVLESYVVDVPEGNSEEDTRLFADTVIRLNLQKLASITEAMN
Substitution	relative binding score [%]
D153K	-15.7
G81A	7.56
I12C	31.1
S59I	32.8
Y18N	61
Y18D	28.1
Y53M	11
Q31A	25.5
N177G	99.6
L166Q	3.03
N85F	67.2
I57G	-11.1
K58M	48.7
E127V	87.5
T173G	42
D144Q	37.6
A13S	80.3

Block 2
Target: Interferon regulatory factor 7, full length, phosphomimetic (IRF7, Homo sapiens, UniProt Q92985, residues 1-503, S101K/S471D/S472D/S475D/S476D/S477D/S483D/S484D/S487D)
Chain of UniProt Q92985 (whole entry, unmodified, looked up): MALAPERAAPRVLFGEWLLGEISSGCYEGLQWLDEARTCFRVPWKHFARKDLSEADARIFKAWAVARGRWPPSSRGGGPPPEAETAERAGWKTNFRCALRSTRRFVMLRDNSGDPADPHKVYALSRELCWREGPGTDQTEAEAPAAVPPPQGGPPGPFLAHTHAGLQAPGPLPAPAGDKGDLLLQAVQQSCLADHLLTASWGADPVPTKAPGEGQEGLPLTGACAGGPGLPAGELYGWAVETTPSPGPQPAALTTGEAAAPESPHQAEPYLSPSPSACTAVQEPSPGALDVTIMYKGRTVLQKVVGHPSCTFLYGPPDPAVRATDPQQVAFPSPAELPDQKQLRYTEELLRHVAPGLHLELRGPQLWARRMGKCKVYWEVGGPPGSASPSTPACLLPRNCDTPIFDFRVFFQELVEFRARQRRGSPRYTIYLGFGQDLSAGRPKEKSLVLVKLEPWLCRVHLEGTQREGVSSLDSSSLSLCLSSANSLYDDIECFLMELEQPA
Technique: protein-binding microarray
Molecule type: double-stranded DNA, one strand shown
Matrix: in vitro
Tested at: 250 nM
Setting: 60-bp whole probe
Added: salmon DNA 0.4 mg/ml
Relative to: random background probes
Direction: higher = stronger binding
All sequences stand within: GCCTAGCAC … GTCTTGATTCGCTTGACGCTGCTG
Oligonucleotide	log fluorescence [z-score]
TTAGGTTTCGACTTTCGGGTAGTGCTA	10.8
CTCACTCTAATCTCACTCTGTGTGCTA	0.359
TTTGCTTTCCTTCATGCACTGTGCTAG	0.468
CTATCTCTGTTTTTGCTTTCGTGCTAG	2.22
GATGAACTGAGTATCGAGACGTGCTAG	-0.201
GACGATATCACTATCGAGACGTGCTAG	0.0255
TCACCTTTGTTTTTTTCACTGTGCTAG	0.739
TCAACAGTTTTATTTTAGACTGTGCTA	0.638
TCAGGACTGGACTTTCGGTTAGTGCTA	0.529
TCATGATTGGTTGAACAACTGTGCTAG	-0.378
GACGGTTCCGGTTTAGGGACGTGCTAG	6.39
TTAGAATTGAGTATCGATTAGTGCTAG	0.672
TCTCTGCTACCCTTTGAAAGTGTGCTA	-0.325

Block 3
Target: Ras GTPase-activating protein-binding protein 1, RRM domain (G3BP1, Homo sapiens, UniProt Q13283)
Chain of UniProt Q13283 (whole entry, looked up): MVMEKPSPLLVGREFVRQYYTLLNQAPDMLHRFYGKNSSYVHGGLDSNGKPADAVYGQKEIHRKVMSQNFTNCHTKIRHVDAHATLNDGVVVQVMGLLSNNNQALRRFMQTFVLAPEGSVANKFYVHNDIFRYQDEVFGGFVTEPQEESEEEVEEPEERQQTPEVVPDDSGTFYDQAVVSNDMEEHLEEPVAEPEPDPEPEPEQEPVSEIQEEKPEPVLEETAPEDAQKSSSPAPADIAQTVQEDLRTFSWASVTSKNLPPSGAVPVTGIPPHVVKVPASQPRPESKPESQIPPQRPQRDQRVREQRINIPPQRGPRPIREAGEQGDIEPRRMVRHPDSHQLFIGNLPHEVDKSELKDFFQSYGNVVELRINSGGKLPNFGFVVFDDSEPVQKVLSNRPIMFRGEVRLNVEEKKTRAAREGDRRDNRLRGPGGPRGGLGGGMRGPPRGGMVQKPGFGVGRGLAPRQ
Technique: RNA Bind-n-Seq
Molecule type: RNA
Matrix: in vitro
Tested at: 1 µM
Setting: whole 134-nt RNA, ends assumed
Added: 150 mM KCl
Relative to: input library
Direction: higher = stronger binding
All sequences stand within: GGGAGUUCUACAGUCCGACGAUC … UGGAAUUCUCGGGUGUCAAGG
Oligonucleotide	log2 enrichment
UCCUGUGCUACACAUCGUAUGUACCGAAUCGGGGAAAAAGGGGAGGGGAAAAAAAGGGGAAAGUAUUAUGUUACGCCGUUCGGAUCUGCA	0.604
AAGUCCUGUGCUACACAUCGUAUGUACCGAAUCGGGUGGGUUUUUGGGUUUUUGGGAAAGUAUUAUGUUACGCCGUUCGGAUCUGCACUU	0.325
UGGCCCUGGUGGCAUGCGGGGAGGAAGAGGUGGCCUCAUGGAUCGUGGUGGUCCCGGUGGAAUGUUCAGAGGUGGCCGUGGCGGAGACAG	1.36
CCUUUUUGAGAAGGCCGGACCCAUUUGGGAUCUACGUCUUAUGAUGGAUCCACUGUCCGGUCAGAAUAGAGGGUAUGCAUUUAUCACCUU	-0.288
GCAGGAAGUAAAAACAAAUGGAAAUGCUUCGGAUAGUGGCAGGGGUGGGGGUUGCUAAGGAAAGGGUCGGAUGGGAGUGGGUAAAGAGUU	1.08
CAAGUCCUGUGCUACACAUCGUAUGUACCGAAUCGGUUUUGGGUUUUGGUUUUGGGAAAGUAUUAUGUUACGCCGUUCGGAUCUGCACUU	-0.232
UGCUGGAGAUGCAAUAUAUGAGGUGGUGAGUCUACAGCGAGAGUCUGACAAGGAGGAACCAGUCACUCCUACUAGUGGAGGGGGUCCAAU	-0.288
UGGGAGGUGGAUUUUGUUUAUUUUUUUAGCUCAUUUCCAGGGGUGGGAAUUUUUUUUUAAUAUGUGUCAUGAAUAAAGUUGUAUUUGAAA	2.25
GUCCUGUGCUACACAUCGUAUGUACCGAAUCGGCCCCCGGGGCCCCCGGCCCCCGGGGAAAGUAUUAUGUUACGCCGUUCGGAUCUGCAC	-0.545
CACAGACAACACGCACCCACACAGACACAGAGAGAAGGGGUUGGGAUGGGGACAGGGUGCACAGCAGGGCGGGGUAGGACCCCAGCCCCU	0.0402
UCCUGUGCUACACAUCGUAUGUACCGAAUCAAAUUUUUUUAAAUUUAAAUUUUUUUAAAAAAGUAUUAUGUUACGCCGUUCGGAUCUGCA	-0.023
UCCUCAAGUCCUGUGCUACACAUCGUAUGUACCGAAUCGGUGGUGGGUGGGGAAAGUAUUAUGUUACGCCGUUCGGAUCUGCACUUCCAG	-0.0608
AGUCCUGUGCUACACAUCGUAUGUACCGAAUCGGGAAAAGGAAAAGGGGAAAAGGGGAAAGUAUUAUGUUACGCCGUUCGGAUCUGCACU	0.148
CACAGACAACACGCCCCCACACAGACACAGAGGGAAGGGGUUGGGAUGGGGACAGGGUGCACAGCAGGGCGGGGUAGGACCCCAGCCCCU	-0.119

Block 4
Target: RNA binding protein fox-1 homolog 2, RRM domain, GST-SBP tag (RBFOX2, Homo sapiens, UniProt O43251-10, residues 100-194)
Technique: RNA Bind-n-Seq
Molecule type: RNA
Matrix: in vitro
Tested at: 365 nM
Setting: natural RNA segment, single round, ends assumed
Relative to: no-protein control
Direction: higher = stronger binding
All sequences stand within: GGGAGUUCUACAGUCCGACGAUC … UGGAAUUCUCGGGUGCCAA
Construct (chain): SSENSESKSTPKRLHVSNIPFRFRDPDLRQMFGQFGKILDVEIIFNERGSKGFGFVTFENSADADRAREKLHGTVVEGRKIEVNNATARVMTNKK
Oligonucleotide	RBNS enrichment (R)
AGGAGACUGUAGAGUUUUGGGGGAGGGGUGGCAAGGGUGCCCAAGCGUCUCCCACCUUUGGUACCAUCUCUAGUCAUCCUUCCUCCCGGAAGUUGACAAGACACAUCUUG	0.276
UAGAUUGUCCUUGGGUGAGUGAGAAAAAACACUUUGCAUUGCUUUCAGGUUGGUGGAAAAUGUCAGUGGUGUAGUGUUGAGGACCUCACUAUUUUUUUUUUUAAAUCAUU	0.922
GUUAGGUCAGCCAACUGGUUCUGCCUGUCGCCUUGCCACGGAGGAGGCUUCUAAUUAGCUGGAAAAGAGUAUUUUUCUAAUACGUUGCAAGGAUUAGCCAAAUCUUCUUA	0.222
ACAGUUCAAAAAGUUCAUUUAUAAAAGUAGUUUCCUGUUCCUAGUGUGAUGUAUCACAAAUUGUGCUGAGGUUAUUUUAGUAUGUGUGUUUCAUUCCCGUGCUUCUGUUC	0.689
GCUCCUCUCAGCAUGAGGUGGAGCAGUGACCAGGUGGAGCAGUGACCAGGACGCCUCUGGCCCAGUGCUGCCCAGCCUCCCCGCCCGCUCCCAGGCGCCCCAUGUCCUCA	1.26
ACAUUUAGAGUUAGUAAGGGUUUUAUAUCUCUUCUGUCCAUAUUGUUUUCAAAGGAAUGAGGUGUUUAGGUGGCUGGAAAAGCAUUUGUAGGAAGUUAGAUUUGAAUAUA	0.884
CCAACCACAGGGAGUGCCAGUUAACACUGGAAGGAUUAAGGCAAGGUCCCUUCUCUUGAGACUCCCCUCUGAGAUCUGAAAAAUGAAGUGGCUUAGGAACAUCAGCAGUG	0.447
CCUGAGCACUAGCCGGAGUCUGGGCACAGUGUCUGAGACCACACCAUAGGCUGCGUGAGUGUGAGUGUGUAUGGAAGUGUGUGCGCAAGUGUGUGCGCAUGCAUGAGUGC	1.2
UCAGAUCUCAGAAUACUUAACCAAGCCAUUACAUCUUAAAACAAAACAAGUAGCAUACAUUUUGUAAUUAACAUUGAUAAACACUGUGAUUUUUUUGGUUAAAACUUUUU	0.599
GGAAACCUGGCUUUGCUCUGGACAAAGGGUUCCAGAGAGAAGCUAGAAGUCCCCCUUGAAUGACCCCCAGAGCCCCUCUGAGAAGGGCUGGAGUUUGGGGGAAGGGGAUG	1.44
GCCCCUCGGCUCUGCCGCGGUGGGCCGAGGCCGCUGUUGGGGGUUUCCCUGUGUGGACCAUGGGGAUCAGAGUCUGGCCUGCCAGGCUCCUCUCCCCGUUUUCUCUUUUG	0.2
AGGAAUGAACUCUGUGGGUUCCUGGGGAUGGAAGGACCGACAGAGCGGCUGAGCUGCUGGCUCUCUGGAGACUCCGUAGAGAACCCAGCGAUCAAAAACCCACUGUGAUG	0.805

Block 5
Target: Centromere-binding protein 1, full length, N-terminal tag (CBF1, Saccharomyces cerevisiae, UniProt P17106, residues 1-351)
Chain of UniProt P17106 (whole entry, looked up): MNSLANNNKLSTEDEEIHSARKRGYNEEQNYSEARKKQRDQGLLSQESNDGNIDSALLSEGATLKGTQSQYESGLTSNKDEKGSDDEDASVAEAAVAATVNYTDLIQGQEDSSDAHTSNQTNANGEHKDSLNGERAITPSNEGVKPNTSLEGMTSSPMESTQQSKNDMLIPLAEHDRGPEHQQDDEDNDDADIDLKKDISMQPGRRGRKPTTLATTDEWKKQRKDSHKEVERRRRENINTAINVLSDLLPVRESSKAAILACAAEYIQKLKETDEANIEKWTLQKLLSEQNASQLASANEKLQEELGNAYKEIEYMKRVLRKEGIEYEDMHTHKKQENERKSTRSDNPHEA
Technique: protein-binding microarray
Molecule type: double-stranded DNA, one strand shown
Matrix: in vitro
Tested at: 0.8 µM
Setting: whole 60-bp probe, no competitor
Direction: higher = stronger binding
All sequences stand within: … GTCTTGATTCGCTTGACGCTGCTG
Oligonucleotide	fluorescence intensity [a.u.]
GAACTGTCCTTCCATAATCACGTGCTTACCTATTAG	18800
CTACTGCAACACAGACACGGGAAGGCCCAATCATTC	528
GAATGAGAACAATCAGGTGAGAGATGCCGTTTCTAG	629
CTACTACAATTGTACAATGTCACGTAAACAGTTTTC	671
CTACAGAATAAGTCACACATGATATAAAAAGAATTC	1380
GAACAATAAGAAAAACATCTGATGTTGACTTAATAG	507
CTACTTTTTTTTTAATGCCTGACGTTGAAGAGCTTC	534
CTATAAATGTCGCATCATGACTCCCGACAATAATTC	542
CTAAATTCGTAGGTGCAGGTGAGCATATTGCCGTTC	560
CCTAACTACTATATCAGCATGACATAGCTTCGTACA	568
GAATTGGGAAACAGTCATCAGATCTTATGGAAATAG	578
GAACGCGTCAATAAACACATGATGAGTATGTGTTAG	1090
GAACCTTCTAGATGCCATCAGTTGTTAATAGTATAG	525
GAACACTCTTCCCGTGATGCGAATGGTAAAGAATAG	1300
TGTACGAAGCTATCACAGGAGATTATAGTAGTTAGG	523
GAAAAATCCCGTAAACTCATGATGTAAATTTTGTAG	513
GAAAGTGCAAAAGTTCATATGATGCTATCTCCCTAG	513
GAACTTACCCCTCTACACGTGGCTTCTCAGAAGTAG	2000
GAACTTATAAATTCACATGTGTCGGAGATCCACTAG	711
CTACTGCGCGTATTTCACGCAATCTATACATAATTC	534
GAATCAGTTTCTTAGCTGATGATGAGTGCTGTCTAG	539

Single results of other studies
Molecule	target	assay	system	conditions	how to read	measurement	result
GSPAKKLFTSTGL	human cyclin A2	peptide binding, competitive growth sequencing	peptide, Saccharomyces cerevisiae, cyclin A2-Cln2 fusion strain	mutational scanning library 1	direction not given	enrichment score	0.0552

Excerpt of the above (block 3):
Oligonucleotide	log2 enrichment
AAGUCCUGUGCUACACAUCGUAUGUACCGAAUCGGGUGGGUUUUUGGGUUUUUGGGAAAGUAUUAUGUUACGCCGUUCGGAUCUGCACUU	0.325
UGGCCCUGGUGGCAUGCGGGGAGGAAGAGGUGGCCUCAUGGAUCGUGGUGGUCCCGGUGGAAUGUUCAGAGGUGGCCGUGGCGGAGACAG	1.36
CCUUUUUGAGAAGGCCGGACCCAUUUGGGAUCUACGUCUUAUGAUGGAUCCACUGUCCGGUCAGAAUAGAGGGUAUGCAUUUAUCACCUU	-0.288
GCAGGAAGUAAAAACAAAUGGAAAUGCUUCGGAUAGUGGCAGGGGUGGGGGUUGCUAAGGAAAGGGUCGGAUGGGAGUGGGUAAAGAGUU	1.08
CAAGUCCUGUGCUACACAUCGUAUGUACCGAAUCGGUUUUGGGUUUUGGUUUUGGGAAAGUAUUAUGUUACGCCGUUCGGAUCUGCACUU	-0.232
UGCUGGAGAUGCAAUAUAUGAGGUGGUGAGUCUACAGCGAGAGUCUGACAAGGAGGAACCAGUCACUCCUACUAGUGGAGGGGGUCCAAU	-0.288
UGGGAGGUGGAUUUUGUUUAUUUUUUUAGCUCAUUUCCAGGGGUGGGAAUUUUUUUUUAAUAUGUGUCAUGAAUAAAGUUGUAUUUGAAA	2.25
GUCCUGUGCUACACAUCGUAUGUACCGAAUCGGCCCCCGGGGCCCCCGGCCCCCGGGGAAAGUAUUAUGUUACGCCGUUCGGAUCUGCAC	-0.545
CACAGACAACACGCACCCACACAGACACAGAGAGAAGGGGUUGGGAUGGGGACAGGGUGCACAGCAGGGCGGGGUAGGACCCCAGCCCCU	0.0402
UCCUGUGCUACACAUCGUAUGUACCGAAUCAAAUUUUUUUAAAUUUAAAUUUUUUUAAAAAAGUAUUAUGUUACGCCGUUCGGAUCUGCA	-0.023
UCCUCAAGUCCUGUGCUACACAUCGUAUGUACCGAAUCGGUGGUGGGUGGGGAAAGUAUUAUGUUACGCCGUUCGGAUCUGCACUUCCAG	-0.0608
